Results gathered from unrelated publications.
“And” joins repeats or separate records; there may be more than shown.

| SMILES | test | system | setting | scale | endpoint | result |
| --- | --- | --- | --- | --- | --- | --- |
| OCC(S)CS (stereo not drawn) |  | rat | dose not given | baseline: vehicle | GSSG level | no effect |
| C[C@]12CC[C@H]3[C@@H](CC=C4CC(O)CC[C@@]43CO)[C@@H]1CCC2O (stereo partly drawn) | Seahorse, refers to: basal, maximal and ATP-linked respiration | primary hepatocytes, rat, GAN diet-induced MASH | dose not given, hepatocytes isolated after dosing | baseline: GAN diet plus vehicle | mitochondrial respiration | increased |
| COC(=O)[C@H]1[C@@H](OC(=O)c2ccccc2)C[C@@H]2CC[C@H]1N2C |  | mouse, nucleus accumbens | i.p., 20 mg/kg, single injection |  | cAMP signal in D1 MSNs | increased |
| CN1CC[C@]23c4c5ccc(O)c4O[C@H]2[C@@H](OS(=O)(=O)O)C=C[C@H]3[C@H]1C5 | hot water tail withdrawal test | normal Sprague-Dawley rats | dose not given |  | time to peak effect | 45 to 60 min |
| NCC1(CC(=O)O)CCCCC1 | acetone test | CCI mice | dose not given, 2 h |  | cold allodynia reduction | 75% |
| CN1CC[C@]23c4c5ccc(O)c4O[C@H]2[C@@H](O)C=C[C@H]3[C@H]1C5 | hot water tail withdrawal test | normal Sprague-Dawley rats | dose not given |  | time to return to baseline latency | 2 to 3 h |
| CC(C)C[C@H](CN)CC(=O)O | whole-cell current clamp | DRG neurons, rat, spinal cord injury | 10 µM, overnight, added: nimodipine 5 µM |  | rheobase | 255 pA and 160 pA and 10 pA and 60 pA and 105 pA |
| CCCCCn1cc(C(=O)C2C(C)(C)C2(C)C)c2ccccc21 | Δ9-THC discrimination | C57BL/6J male mice | ip |  | dose for full substitution | 5.6 mg/kg |
| C#CCN(C)[C@H](C)Cc1ccccc1 | stereological counting | MPTP mouse model, substantia nigra | 10 mg/kg |  | TH-positive neuron count | 8470 and 8740 and 6510 and 7350 and 8190 and 7630 |
